Measured values gathered from unrelated publications.
Protocols differ between the studies behind these lines. Numbers after ± are the reported error. ≈ marks a conversion by molar mass, not a printed value.
Organism: Saccharomyces cerevisiae

SMILES = COc1c(Br)cc(CCNC2=CC3=NCCc4c[nH]c(c43)C2=O)cc1Br; test = cell growth, liquid culture; test system = BY4741; setting = 100 µM, 24 h; quantity = inhibition; result = 20.1%
SMILES = O=C(c1ccc(Cl)c([N+](=O)[O-])c1)N1CCN(c2ccc(F)cc2)CC1; test = growth; test system = sec14∆/SEC14 diploid; quantity = IC50; result = 7.4 ± 1.2 µM
SMILES = O=C(NCCN1CCCC1)c1ccc2cc(C(=O)c3cc(O)c(O)c(O)c3)oc2c1; test system = YPD medium; setting = 30 °C; quantity = MIC; result = > 128 µg/mL
SMILES = O=C1C(=O)c2[nH]cc3c2C(=C1I)NCC3; test = cell growth, liquid culture; test system = BY4741; setting = 100 µM, 24 h; quantity = inhibition; result = 0%
SMILES = COc1ccc(N2CCN(C(=O)c3ccc(Cl)c([N+](=O)[O-])c3)CC2)cc1; test = CPY trafficking; setting = 10 µM; quantity = mature CPY; result = 72%
SMILES = COc1ccc(NC(=O)COc2cccc(OCC(C)C)c2)cc1; test = microbial growth; quantity = MIC50; result = 0.5 µg/mL (≈ 1.52 µM)
SMILES = Cc1ccc(S(=O)(=O)n2cc3c4c2C(=O)C(NCCc2ccc(O)cc2)=CC4=NCC3)cc1; test = cell growth, liquid culture; test system = BY4741; setting = 100 µM, 24 h; quantity = inhibition; result = 35.2%
SMILES = CC1=NN(c2cccc(F)c2)C(=O)/C1=N\Nc1ccc(S(N)(=O)=O)cc1; setting = 200 µg/mL; quantity = glucose uptake; result = 39.6%
SMILES = O=C(c1ccc(Cl)c([N+](=O)[O-])c1)N1CCN(c2ccccc2F)CC1; test = CPY trafficking; setting = 4 µM; quantity = mature CPY; result = 82%
SMILES = CC1=NN(c2ccccc2F)C(=O)/C1=N\Nc1ccc(S(N)(=O)=O)cc1; setting = 10 µg/mL; quantity = glucose uptake; result = 39.964 ± 0.000791%
SMILES = O=C(c1cccc(Br)c1)N1CCN(c2ccc(F)cc2)CC1; test = microbial growth; quantity = IC50; result = > 20 µM
SMILES = O=C1C(NCCc2ccc(O)c(Br)c2)=CC2=NCCc3c[nH]c1c32; test = cell growth, liquid culture; test system = BY4741; setting = 100 µM, 24 h; quantity = inhibition; result = 13.6%
